# Published values from different studies.
# Compare with care: the assays were run in different laboratories. ± gives the spread as reported.
SMILES,organism,test,system,conditions,scale,quantity,result
NC(=O)c1ncn([C@@H]2O[C@H](CO)[C@@H](O)[C@H]2O)n1,Influenza A virus H3N2,"viral replication, visual CPE score",MDCK,,,EC50,3 ± 1 µM
NC(=O)c1ncn([C@@H]2O[C@H](CO)[C@@H](O)[C@H]2O)n1,unidentified influenza virus,"viral replication, inhibitor","MDCK, H1N1 PR/8",24 h,,IC50,10.5 µM
NC(=O)c1ncn([C@@H]2O[C@H](CO)[C@@H](O)[C@H]2O)n1,coxsackievirus B3,viral replication,,,,IC50,222 µM
Cc1ccc(C(=O)NCc2c(C)c3c([nH]c2=O)CCCC3)cn1,Mycobacterium tuberculosis,"microbial growth, resazurin",H37RV,,,MIC,> 50 µg/mL
CC(=O)N[C@H]1[C@H]([C@H](O)[C@H](O)CO)OC(SCCOCCOCCOCCOCCOCCSC2(C(=O)O)C[C@H](NC(N)=O)[C@@H](NC(C)=O)[C@H]([C@H](O)[C@H](O)CO)O2)(C(=O)O)C[C@@H]1NC(=N)N (stereo partly shown),Influenza A virus,plaque formation,H1N1,30 min,,IC50,1 µM
CC(N)C12CC3CC(CC(C3)C1)C2 (stereo not shown),Influenza A virus H3N2,"viral replication, visual CPE score",MDCK,,,EC50,0.4 µM
Cc1ccc(C(=O)NCc2c3c(c(C)[nH]c2=O)CCCC3)cn1,Mycobacterium tuberculosis,"microbial growth, resazurin",H37RV,,,MIC,1.3 µg/mL
CC(=O)N[C@H]1[C@H]([C@H](O)[C@H](O)CO)OC(C(=O)O)=C[C@@H]1N=C(N)N,Streptococcus pneumoniae,biofilm formation,,,no inhibition up to value,MBIC90,> 50 µM
O=C(N/N=C1\C(=O)Nc2ccc([N+](=O)[O-])cc21)N/N=C1\C(=O)Nc2ccc([N+](=O)[O-])cc21,Influenza A virus H3N2,"viral replication, visual CPE score",MDCK,,,EC50,72 ± 27 µM
COc1ccc(-c2ccc(C(=O)NCc3c4c(c(C)[nH]c3=O)CCCC4)cc2)cc1OC,Mycobacterium tuberculosis,"microbial growth, resazurin",H37RV,25 µg/mL,,inhibition,54.7%
CC(=O)N[C@H]1[C@H]([C@H](O)[C@H](O)CO)OC(SCCCCCCS)(C(=O)O)C[C@@H]1NC(=N)N (stereo partly shown),Influenza A virus,,,0.5 h,,IC50,1 to 10 µM
O=C(N/N=C1\C(=O)Nc2ccccc21)N/N=C1\C(=O)Nc2ccccc21,Influenza A virus H3N2,"viral replication, visual CPE score",MDCK,,,EC50,> 100 µM
CNC(=O)ON=C(C)SC,Spodoptera frugiperda,insecticidal activity,larvae,topical,,LD50,310 mg/kg
CCOC(=O)C1=C[C@@H](OC(CC)CC)[C@H](NC(C)=O)[C@@H](N)C1,Influenza A virus,,,0.5 h,,IC50,0.001 to 0.01 µM
O=C1Nc2ccccc2/C1=N/NC(=S)N/N=C1\C(=O)Nc2ccccc21,Influenza A virus H3N2,"viral replication, MTS",MDCK,,,EC50,34 ± 9.5 µM
Cc1[nH]c(=O)c(CNC(=O)c2ccc([N+](=O)[O-])o2)c2c1CCCC2,Mycobacterium tuberculosis,"microbial growth, resazurin",H37RV,,,MIC,2.8 µg/mL
O=C1/C(=N\NC(=S)NN=Cc2ccccc2)c2ccccc2N1Cc1ccccc1,influenza A virus,"cytopathic effect, visual CPE score","MDCK, H1N1",,,EC50,> 100 µM
COc1cc(Cc2ccc(C(=O)NCc3c4c(c(C)[nH]c3=O)CCCC4)cc2)cc(OC)c1,Mycobacterium tuberculosis,"microbial growth, resazurin",H37RV,25 µg/mL,,inhibition,93.1%
NC(=O)c1ncn([C@@H]2O[C@H](CO)[C@@H](O)[C@H]2O)n1,unidentified influenza virus,viral replication,"MDCK, H1N1",48 h,,IC50,39 µM
